Results gathered from unrelated publications.
Lines come from different studies, so protocols differ.
B1: POL32 1-350 (Saccharomyces cerevisiae, UniProt P47110); chain MDQKASYFINEKLFTEVKPVLFTDLIHHLKIGPSMAKKLMFDYYKQTTNAKYNCVVICCYKDQTIKIIHDLSNIPQQDSIIDCFIYAFNPMDSFIPYYDIIDQKDCLTIKNSYELKVSESSKIIERTKTLEEKSKPLVRPTARSKTTPEETTGRKSKSKDMGLRSTALLAKMKKDRDDKETSRQNELRKRKEENLQKINKQNPEREAQMKELNNLFVEDDLDTEEVNGGSKPNSPKETDSNDKDKNNDDLEDLLETTAEDSLMDVPKIQQTKPSETEHSKEPKSEEEPSSFIDEDGYIVTKRPATSTPPRKPSPVVKRALSSSKKQETPSSNKRLKKQGTLESFFKRKAK
B2: NCOA4 339-442 (UniProt Q13772); 2Fe-2S cluster bound; chain DWLVKTDSCTNCQGNQPKGVEIENLGNLKCLNDHLEAKKPLSTPSMVTEDWLVQNHQDPCKVEEVCRANEPCTSFAECVCDENCEKEALYKWLLKKEGKDKNGM
B3: VIP1 (Arabidopsis thaliana, UniProt Q9MA75); sequence looked up; chain MEGGGRGPNQTILSEIEHMPEAPRQRISHHRRARSETFFSGESIDDLLLFDPSDIDFSSLDFLNAPPPPQQSQQQPQASPMSVDSEETSSNGVVPPNSLPPKPEARFGRHVRSFSVDSDFFDDLGVTEEKFIATSSGEKKKGNHHHSRSNSMDGEMSSASFNIESILASVSGKDSGKKNMGMGGDRLAELALLDPKRAKRILANRQSAARSKERKIRYTGELERKVQTLQNEATTLSAQVTMLQRGTSELNTENKHLKMRLQALEQQAELRDALNEALRDELNRLKVVAGEIPQGNGNSYNRAQFSSQQSAMNQFGNKTNQQMSTNGQPSLPSYMDFTKRG
B4: ABCG16 1-145 (Arabidopsis thaliana, UniProt Q9M2V7); sequence looked up; chain MSRILVEDDNATPFHSMEIISSSLTLGQLLKNVSDVRKVEVGDETPVHEFFDRDGSSLDGDNDHLMRPVPFVLSFNNLTYNVSVRRKLDFHDLVPWRRTSFSKTKTLLDNISGETRDGEILAVLGASGSGKSTLIDALANRIAKG
B5: fesII 1-122 (Azotobacter vinelandii, UniProt Q44501); chain MATIYFSSPLMPHNKKVQAVAGKRSTLLGVAQENGVKIPFECQDGNCGSCLVKITHLDGERIKGMLLTDKERNVLKSVGKLPKSEEERAAVRDLPPTYRLACQTIVTDEDLLVEFTGEPGGA
B6: PAN1 543-850 (Saccharomyces cerevisiae, UniProt P32521); sequence looked up; chain LTGLQPQPTGFLPPSNFSATMPLTAQKTGFGNNEIYTKSNFNNNLIDNSSQDKISTEEKSLFYKIFETFDTQNKGLLDSPTAVEIFRKSGLNRADLEQIWNLCDINNTGQLNKQEFALGMHLVYGKLNGKPIPNVLPSSLIPSSTKLLDNLKNQLKTEPTTTKEKPSFGKIDALSYKNNDDDVLPNYRNRRKVYSAKNEEQSSFSSPSAKSVNHSSSTLQTDDISVDKTVEKKTAKPKYAGFSREINLKNIASLENEIKNISNPENCYDSSIPSDLTSRFDAIIAKLPNLFNEISTIDNEITNAKIQL
B7: RAD18 267-402 (Homo sapiens, UniProt Q9NS91); sequence looked up; chain IQGNKQQLIKRHQEFVHMYNAQCDALHPKSAAEIVREIENIEKTRMRLEASKLNESVMVFTKDQTEKEIDEIHSKYRKKHKSEFQLLVDQARKGYKKIAGMSQKTVTITKEDESTEKLSSVCMGQEDNMTSVTNHF
B8: SF3B1 454-1304 K700E (Homo sapiens, UniProt O75533); chain KSVNDQPSGNLPFLKPDDIQYFDKLLVDVDESTLSPEEQKERKIMKLLLKIKNGTPPMRKAALRQITDKAREFGAGPLFNQILPLLMSPTLEDQERHLLVKVIDRILYKLDDLVRPYVHKILVVIEPLLIDEDYYARVEGREIISNLAKAAGLATMISTMRPDIDNMDEYVRNTTARAFAVVASALGIPSLLPFLKAVCKSKKSWQARHTGIKIVQQIAILMGCAILPHLRSLVEIIEHGLVDEQQEVRTISALAIAALAEAATPYGIESFDSVLKPLWKGIRQHRGKGLAAFLKAIGYLIPLMDAEYANYYTREVMLILIREFQSPDEEMKKIVLKVVKQCCGTDGVEANYIKTEILPPFFKHFWQHRMALDRRNYRQLVDTTVELANKVGAAEIISRIVDDLKDEAEQYRKMVMETIEKIMGNLGAADIDHKLEEQLIDGILYAFQEQTTEDSVMLNGFGTVVNALGKRVKPYLPQICGTVLWRLNNKSAKVRQQAADLISRTAVVMKTCQEEKLMGHLGVVLYEYLGEEYPEVLGSILGALKAIVNVIGMHKMTPPIKDLLPRLTPILKNRHEKVQENCIDLVGRIADRGAEYVSAREWMRICFELLELLKAHKKAIRRATVNTFGYIAKAIGPHDVLATLLNNLKVQERQNRVCTTVAIAIVAETCSPFTVLPALMNEYRVPELNVQNGVLKSLSFLFEYIGEMGKDYIYAVTPLLEDALMDRDLVHRQTASAVVQHMSLGVYGFGCEDSLNHLLNYVWPNVFETSPHVIQAVMGALEGLRVAIGPCRMLQYCLQGLFHPARKVRDVYWKIYNSIYIGSQDALIAHYPRIYNDDKNTYIRYELDYIL
B9: ATG9 1-100 (Saccharomyces cerevisiae, UniProt Q12142); sequence looked up; chain MERDEYQLPNSHGKNTFLSRIFGLQSDEVNPSLNSQEMSNFPLPDIERGSSLLHSTNDSREDVDENDLRVPESDQGTSTEEEDEVDEEQVQAYAPQISDG
B10: RNF216 260-509 (Homo sapiens, UniProt Q9NWF9-2); sequence looked up; chain MQESQEPNLENIWGQEAAEVDQELVELLVKETEARFPDVANGFIEEIIHFKNYYDLNVLCNFLLENPDYPKREDRIIINPSSSLLASQDETKLPKIDFFDYSKLTPLDQRCFIQAADLLMADFKVLSSQDIKWALHELKGHYAITRKALSDAIKKWQELSPETSGKRKKRKQMNQYSYIDFKFEQGDIKIEKRMFFLENKRRHCRSYDRRALLPAVQQEQEFYEQKIKEMAEHEDFLLALQMNEEQYQKD
B11: Notch1 221-526 (Mus musculus, UniProt Q01705); sequence looked up; chain PCSPSPCQNGGTCRPTGDTTHECACLPGFAGQNCEENVDDCPGNNCKNGGACVDGVNTYNCRCPPEWTGQYCTEDVDECQLMPNACQNGGTCHNTHGGYNCVCVNGWTGEDCSENIDDCASAACFQGATCHDRVASFYCECPHGRTGLLCHLNDACISNPCNEGSNCDTNPVNGKAICTCPSGYTGPACSQDVDECALGANPCEHAGKCLNTLGSFECQCLQGYTGPRCEIDVNECISNPCQNDATCLDQIGEFQCICMPGYEGVYCEINTDECASSPCLHNGHCMDKINEFQCQCPKGFNGHLCQ
B12: ERRFI1 330-399 Y358A (human, UniProt Q9UJM3); N-terminal FITC; sequence looked up; chain SRTPSPKSLPSYLNGVMPPTQSFAPDPKAVSSKALQRQNSEGSASKVPCILPIIENGKKVSSTHYYLLPE
B13: RAV1 679-898 (Saccharomyces cerevisiae, UniProt P47104); sequence looked up; chain NTPSYLPIEKIDITAHTAHNIGDSVWMKNGTFVVASGNQFYIKDKSLDLTDPFTYQSIGSRKILSNDILHLSSVLNGPLPVYHPQFLIQAIYANKLQLVKELLLRLFLALRKLDFESQDVSNLDSNLGMDPLKYFIAKDRDYPVESFPDPYPCFNKTVSLALTEQLTKTTLPYLTRHQQITLITVIEAVDEVTKNENIVDYNGVRFLLGVKLFLSHKNIQ
B14: NOTCH1 1758-1888 (Homo sapiens, UniProt P46531); sequence looked up; chain RKRRRQHGQLWFPEGFKVSEASKKKRREPLGEDSVGLKPLKNASDGALMDDNQNEWGDEDLETKKFRFEEPVVLPDLDDQTDHRQWTQQHLDAADLRMSAMAPTPPQGEVDADCMDVNVRGPDGFTPLMIA
B15: POL30 1-258 (Saccharomyces cerevisiae, UniProt P15873); chain MLEAKFEEASLFKRIIDGFKDCVQLVNFQCKEDGIIAQAVDDSRVLLVSLEIGVEAFQEYRCDHPVTLGMDLTSLSKILRCGNNTDTLTLIADNTPDSIILLFEDTKKDRIAEYSLKLMDIDADFLKIEELQYDSTLSLPSSEFSKIVRDLSQLSDSINIMITKETIKFVADGDIGSGSVIIKPFVDMEHPETSIKLEMDQPVDLTFGAKYLLDIIKGSSLSDRVGIRLSSEAPALFQFDLKSGFLQFFLAPKFNDEE
B16: RB1CC1 1490-1594 (Homo sapiens, UniProt Q8TDY2); chain SRHSEKIAIRDFQVGDLVLIILDERHDNYVLFTVSPTLYFLHSESLPALDLKPGEGASGASRRPWVLGKVMEKEYCQAKKAQNRFKVPLGTKFYRVKAVSWNKKV
B17: CRP mature R188A (Homo sapiens); chain QTDMSRKAFVFPKESDTSYVSLKAPLTKPLKAFTVCLHFYTELSSTRGYSIFSYATKRQDNEILIFWSKDIGYSFTVGGSEILFEVPEVTVAPVHICTSWESASGIVEFWVDGKPRVRKSLKKGYTVGAEASIILGQEQDSFGGNFEGSQSLVGDIGNVNMWDFVLSPDEINTIYLGGPFSPNVLNWAALKYEVQGEVFTKPQLWP
UniProt Q06330, sequence (whole entry, looked up): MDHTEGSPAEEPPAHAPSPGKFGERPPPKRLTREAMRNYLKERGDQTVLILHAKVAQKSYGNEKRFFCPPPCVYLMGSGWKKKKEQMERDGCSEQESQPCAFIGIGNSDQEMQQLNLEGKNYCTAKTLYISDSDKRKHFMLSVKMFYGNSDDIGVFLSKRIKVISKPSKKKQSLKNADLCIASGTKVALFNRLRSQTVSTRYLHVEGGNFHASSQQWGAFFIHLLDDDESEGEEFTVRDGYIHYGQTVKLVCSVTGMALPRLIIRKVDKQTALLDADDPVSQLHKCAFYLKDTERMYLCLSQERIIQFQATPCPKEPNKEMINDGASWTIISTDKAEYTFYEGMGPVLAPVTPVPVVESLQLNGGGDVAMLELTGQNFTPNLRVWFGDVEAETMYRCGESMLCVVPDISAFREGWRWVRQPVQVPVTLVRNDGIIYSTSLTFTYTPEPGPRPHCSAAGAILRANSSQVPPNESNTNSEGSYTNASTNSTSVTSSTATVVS
UniProt Q04049, sequence (whole entry, looked up): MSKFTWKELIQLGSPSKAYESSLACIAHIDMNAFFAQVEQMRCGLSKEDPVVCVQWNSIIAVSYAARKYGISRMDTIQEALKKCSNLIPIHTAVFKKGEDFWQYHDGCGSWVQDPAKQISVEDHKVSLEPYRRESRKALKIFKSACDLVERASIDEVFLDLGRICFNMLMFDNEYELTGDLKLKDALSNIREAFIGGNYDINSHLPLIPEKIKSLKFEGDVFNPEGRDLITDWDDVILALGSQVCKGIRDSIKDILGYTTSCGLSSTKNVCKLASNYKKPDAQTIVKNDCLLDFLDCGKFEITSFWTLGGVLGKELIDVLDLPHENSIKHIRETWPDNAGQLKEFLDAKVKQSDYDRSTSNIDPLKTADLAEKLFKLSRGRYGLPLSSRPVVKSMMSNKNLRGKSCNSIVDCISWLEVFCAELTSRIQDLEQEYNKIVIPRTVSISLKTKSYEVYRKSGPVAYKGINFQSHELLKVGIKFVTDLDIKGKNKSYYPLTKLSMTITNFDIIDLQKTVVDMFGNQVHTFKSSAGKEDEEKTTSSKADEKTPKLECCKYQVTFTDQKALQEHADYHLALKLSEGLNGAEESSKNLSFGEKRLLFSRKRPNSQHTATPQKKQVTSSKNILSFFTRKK
UniProt P32807, sequence (whole entry, looked up): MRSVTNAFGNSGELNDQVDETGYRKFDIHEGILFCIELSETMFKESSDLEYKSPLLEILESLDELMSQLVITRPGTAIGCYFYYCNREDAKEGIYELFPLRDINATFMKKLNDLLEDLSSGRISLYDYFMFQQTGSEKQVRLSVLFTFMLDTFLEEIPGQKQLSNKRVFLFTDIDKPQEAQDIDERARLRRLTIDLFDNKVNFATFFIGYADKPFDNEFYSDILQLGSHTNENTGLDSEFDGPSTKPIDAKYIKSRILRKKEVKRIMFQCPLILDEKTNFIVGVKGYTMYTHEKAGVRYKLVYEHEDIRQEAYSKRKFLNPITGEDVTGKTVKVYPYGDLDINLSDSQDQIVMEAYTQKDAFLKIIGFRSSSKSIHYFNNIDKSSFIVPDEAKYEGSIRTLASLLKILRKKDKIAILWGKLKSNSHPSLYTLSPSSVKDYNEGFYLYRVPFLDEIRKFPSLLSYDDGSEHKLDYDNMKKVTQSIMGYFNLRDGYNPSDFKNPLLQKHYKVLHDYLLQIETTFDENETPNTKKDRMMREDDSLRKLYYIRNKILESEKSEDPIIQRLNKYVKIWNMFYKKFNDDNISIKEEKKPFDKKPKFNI
UniProt Q00610, sequence (whole entry, unmodified, looked up): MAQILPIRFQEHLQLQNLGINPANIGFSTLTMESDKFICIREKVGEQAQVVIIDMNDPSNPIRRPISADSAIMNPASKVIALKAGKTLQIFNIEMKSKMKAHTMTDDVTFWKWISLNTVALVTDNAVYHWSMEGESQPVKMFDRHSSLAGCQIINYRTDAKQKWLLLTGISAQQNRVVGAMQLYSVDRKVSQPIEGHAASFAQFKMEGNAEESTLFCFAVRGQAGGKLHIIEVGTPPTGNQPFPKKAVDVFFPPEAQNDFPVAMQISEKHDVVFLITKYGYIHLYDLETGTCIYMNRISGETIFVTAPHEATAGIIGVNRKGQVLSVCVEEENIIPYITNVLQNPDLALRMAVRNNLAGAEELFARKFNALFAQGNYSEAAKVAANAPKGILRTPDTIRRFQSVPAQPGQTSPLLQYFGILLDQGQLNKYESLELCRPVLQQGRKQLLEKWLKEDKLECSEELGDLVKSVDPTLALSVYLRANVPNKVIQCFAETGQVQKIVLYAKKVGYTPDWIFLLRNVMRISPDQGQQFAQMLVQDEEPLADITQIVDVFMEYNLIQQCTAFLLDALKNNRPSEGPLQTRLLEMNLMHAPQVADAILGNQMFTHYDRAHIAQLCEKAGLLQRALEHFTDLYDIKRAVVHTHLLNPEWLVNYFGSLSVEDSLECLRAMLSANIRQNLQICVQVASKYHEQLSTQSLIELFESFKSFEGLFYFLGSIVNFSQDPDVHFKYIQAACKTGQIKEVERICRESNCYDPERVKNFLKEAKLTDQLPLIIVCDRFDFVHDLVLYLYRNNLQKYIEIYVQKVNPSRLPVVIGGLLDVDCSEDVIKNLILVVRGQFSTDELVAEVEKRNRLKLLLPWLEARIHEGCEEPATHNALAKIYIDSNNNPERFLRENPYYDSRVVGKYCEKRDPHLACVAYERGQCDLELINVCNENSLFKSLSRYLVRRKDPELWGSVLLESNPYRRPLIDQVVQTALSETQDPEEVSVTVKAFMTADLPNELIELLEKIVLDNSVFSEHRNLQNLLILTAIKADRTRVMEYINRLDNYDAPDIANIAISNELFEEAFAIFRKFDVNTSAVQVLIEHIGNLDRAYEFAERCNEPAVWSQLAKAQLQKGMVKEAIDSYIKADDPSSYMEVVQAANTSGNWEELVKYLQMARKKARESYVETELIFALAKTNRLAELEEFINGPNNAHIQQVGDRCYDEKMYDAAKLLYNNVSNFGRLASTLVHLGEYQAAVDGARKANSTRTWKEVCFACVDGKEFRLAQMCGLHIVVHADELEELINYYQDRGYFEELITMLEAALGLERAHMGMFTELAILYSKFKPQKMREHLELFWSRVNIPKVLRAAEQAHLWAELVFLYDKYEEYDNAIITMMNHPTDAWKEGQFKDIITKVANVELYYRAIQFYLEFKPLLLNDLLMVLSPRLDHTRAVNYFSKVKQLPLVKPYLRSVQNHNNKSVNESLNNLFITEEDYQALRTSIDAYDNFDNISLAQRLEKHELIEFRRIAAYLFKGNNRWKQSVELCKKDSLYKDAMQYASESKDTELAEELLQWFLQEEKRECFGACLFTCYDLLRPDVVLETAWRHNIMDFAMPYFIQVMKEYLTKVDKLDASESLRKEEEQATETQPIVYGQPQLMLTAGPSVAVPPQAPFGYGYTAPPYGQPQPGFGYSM
UniProt P84090, sequence (whole entry, unmodified, looked up): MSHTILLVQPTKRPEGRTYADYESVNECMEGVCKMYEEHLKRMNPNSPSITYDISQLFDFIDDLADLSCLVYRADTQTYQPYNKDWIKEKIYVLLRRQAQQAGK
UniProt Q9FEE2, sequence (whole entry, looked up): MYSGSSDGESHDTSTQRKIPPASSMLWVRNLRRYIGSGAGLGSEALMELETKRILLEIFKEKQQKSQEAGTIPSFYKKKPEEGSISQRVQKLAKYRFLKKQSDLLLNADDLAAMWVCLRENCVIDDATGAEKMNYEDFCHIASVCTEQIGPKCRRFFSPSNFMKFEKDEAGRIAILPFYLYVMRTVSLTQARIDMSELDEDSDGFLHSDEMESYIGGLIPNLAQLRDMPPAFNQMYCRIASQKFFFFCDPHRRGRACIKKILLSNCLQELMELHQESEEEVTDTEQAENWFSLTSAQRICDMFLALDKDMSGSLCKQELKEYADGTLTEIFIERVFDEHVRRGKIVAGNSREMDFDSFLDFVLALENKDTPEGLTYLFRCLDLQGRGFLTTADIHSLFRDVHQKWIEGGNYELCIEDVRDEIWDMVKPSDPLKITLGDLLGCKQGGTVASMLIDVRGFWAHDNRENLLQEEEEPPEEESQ
UniProt Q13137, sequence (whole entry, looked up): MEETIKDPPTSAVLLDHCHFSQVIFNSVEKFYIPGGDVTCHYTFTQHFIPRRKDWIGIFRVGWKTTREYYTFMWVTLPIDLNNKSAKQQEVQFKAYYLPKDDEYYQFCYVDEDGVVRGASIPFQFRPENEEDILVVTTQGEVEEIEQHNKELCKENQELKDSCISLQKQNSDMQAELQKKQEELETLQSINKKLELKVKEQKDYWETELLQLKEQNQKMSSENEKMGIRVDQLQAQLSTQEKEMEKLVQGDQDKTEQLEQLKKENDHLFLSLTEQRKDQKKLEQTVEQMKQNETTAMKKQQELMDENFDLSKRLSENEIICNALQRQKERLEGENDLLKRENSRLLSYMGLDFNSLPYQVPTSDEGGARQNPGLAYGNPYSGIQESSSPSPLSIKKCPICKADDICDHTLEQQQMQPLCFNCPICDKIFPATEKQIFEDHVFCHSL
UniProt Q9BWJ5, sequence (whole entry, looked up): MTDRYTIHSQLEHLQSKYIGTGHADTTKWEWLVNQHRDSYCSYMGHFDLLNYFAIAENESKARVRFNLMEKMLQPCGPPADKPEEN
UniProt O60573, sequence (whole entry, unmodified, looked up): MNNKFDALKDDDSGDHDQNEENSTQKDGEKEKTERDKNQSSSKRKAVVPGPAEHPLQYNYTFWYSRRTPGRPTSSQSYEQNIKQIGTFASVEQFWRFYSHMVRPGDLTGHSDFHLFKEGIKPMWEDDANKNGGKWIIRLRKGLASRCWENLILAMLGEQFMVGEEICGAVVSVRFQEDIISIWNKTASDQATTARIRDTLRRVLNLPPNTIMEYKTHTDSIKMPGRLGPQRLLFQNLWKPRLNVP
UniProt Q9Z309, sequence (whole entry, looked up): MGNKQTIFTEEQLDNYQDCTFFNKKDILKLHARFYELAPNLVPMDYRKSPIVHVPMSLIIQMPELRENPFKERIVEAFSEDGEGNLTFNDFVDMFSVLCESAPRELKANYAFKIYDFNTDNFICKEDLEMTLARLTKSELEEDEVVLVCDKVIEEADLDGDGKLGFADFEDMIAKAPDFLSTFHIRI

| Substance | target or system | assay | system | conditions | quantity | value |
| --- | --- | --- | --- | --- | --- | --- |
| B1 (POL32 1-350) | REV1 (Saccharomyces cerevisiae, UniProt P12689) | cryo-EM |  |  | binding | binds |
| B2 (NCOA4 339-442) | HERC2 2540-2700 (Homo sapiens, UniProt O95714) | ITC |  |  | binding | binds |
| B3 (VIP1) | FASS (Arabidopsis thaliana, UniProt Q9FEE2) | pull-down |  |  | binding | binds |
| B4 (ABCG16 1-145) | BAM1 694-963 (Arabidopsis thaliana, UniProt O49545) | pull-down |  |  | binding | binds |
| B5 (fesII 1-122) | nifD/nifK MoFe protein (Azotobacter vinelandii) | cryo-EM |  |  | binding | binds |
| KESALRKQDLLLQFDPLFR (TACC3 to 568 550-568 S558D/Y560L/K562Q/L567F (Homo sapiens, UniProt Q9Y6A5); sequence looked up) | CLTC 358-574 (Homo sapiens, UniProt Q00610) | peptide array | peptide |  | binding | binds |
| B6 (PAN1 543-850) | PAN1 231-1480 (Saccharomyces cerevisiae, UniProt P32521) | pull-down |  |  | binding | binds |
| BIRC3 (Homo sapiens, UniProt Q13489) | KDM2B (Homo sapiens, UniProt Q8NHM5) | cross-linking MS |  | together with: DSSO | cross-linked residues | K402 to K999 |
| LVLAMWKAGFFKRNR (ITGA2B cytoplasmic tail) | Cib2 (Mus musculus, UniProt Q9Z309) | ELISA | peptide |  | binding | binds |
| KYKLADYRYGREEMLALFLK (GIGYF2(35-54) peptide; sequence looked up) | EIF4E2 (Homo sapiens, UniProt O60573) | ITC | peptide | pH 7.0, 20 °C, GB1-stabilized peptide titration | -TΔS | 13.5 kcal/mol |
| GMERTVVMDKSKGEPVISVKTT (SAFB2 567-588 (Homo sapiens, UniProt Q14151)) | ERH 1-104 E30R/E37R (Homo sapiens, UniProt P84090) | pull-down |  |  | binding | binds |
| B7 (RAD18 267-402) | MAGEA4 101-312 R299A (Homo sapiens, UniProt P43358) | TR-FRET |  |  | binding | binds |
| YKU70 (Saccharomyces cerevisiae, UniProt P32807) | YKU80 (Saccharomyces cerevisiae, UniProt Q04437) | cryo-EM structure |  |  | binding | binds |
| B8 (SF3B1 454-1304 K700E) | SF3B5 (Homo sapiens, UniProt Q9BWJ5) | cryo-EM |  |  | binding | binds |
| B9 (ATG9 1-100) | ATG23 A34E (Saccharomyces cerevisiae, UniProt Q06671) | pull-down |  | 15 minutes, 4 °C | binding | binds |
| colistin | Enterobacter cloacae |  | clinical isolate RKI 733/14 |  | MIC | ≤ 0.5 µg/mL |
| B10 (RNF216 260-509) | MAPT (Homo sapiens, UniProt P10636-6) | pull-down |  |  | binding | binds |
| B11 (Notch1 221-526) | DLL4 27-400 N257P/T271L/F280Y/S301R/Q305P (Homo sapiens, UniProt Q9NR61) | SPR |  |  | binding | binds |
| B12 (ERRFI1 330-399 Y358A) | EGFR 696-1022 (Homo sapiens, UniProt P00533) | fluorescence polarization |  | apparent | binding | binds |
| B13 (RAV1 679-898) | VPH1 1-372 (Saccharomyces cerevisiae, UniProt P32563) | pull-down |  |  | binding | binds |
| B14 (NOTCH1 1758-1888) | RBPJ 25-449 (Homo sapiens, UniProt Q06330) | ITC |  |  | binding | binds |
| B15 (POL30 1-258) | RAD30 (Saccharomyces cerevisiae, UniProt Q04049) | ELISA |  |  | binding | binds |
| B16 (RB1CC1 1490-1594) | CALCOCO2 128-316 (Homo sapiens, UniProt Q13137) | SEC |  |  | binding | binds |
| B17 (CRP mature R188A) | C1q (UniProt P02745) | cryo-EM structure |  | together with: CaCl2 | binding | binds |

Repeated from above:
| Substance | target or system | assay | system | conditions | quantity | value |
| --- | --- | --- | --- | --- | --- | --- |
| B2 (NCOA4 339-442) | HERC2 2540-2700 (Homo sapiens, UniProt O95714) | ITC |  |  | binding | binds |
| B3 (VIP1) | FASS (Arabidopsis thaliana, UniProt Q9FEE2) | pull-down |  |  | binding | binds |
| B4 (ABCG16 1-145) | BAM1 694-963 (Arabidopsis thaliana, UniProt O49545) | pull-down |  |  | binding | binds |
| B5 (fesII 1-122) | nifD/nifK MoFe protein (Azotobacter vinelandii) | cryo-EM |  |  | binding | binds |
